Published values pooled from the literature.
Each numbered part is a random draw from the data of one study; scales do not carry over between parts.

Set 1 — method: aptamer microarray, sandwich; molecule type: DNA with 2'F-ANA; medium: in vitro; tested at: 200 nM; together with: Cy3 exosite-II aptamer, 400 nM; reading: higher = stronger binding; oligonucleotide: GGTTGGTGTGGTTGG
Target: Prothrombin, mature alpha-thrombin (F2, Homo sapiens, UniProt P00734)
Notes: whole 15-mer aptamer, many near background
Modification	mean fluorescence intensity
2'F-ANA at 1 3 4 5 14	49.4 a.u.
2'F-ANA at 2 3 4 5 6 7 8 9 11 12 13 14	52.8 a.u.
2'F-ANA at 1 4 7 9 12 15	253 a.u.
2'F-ANA at 1 5 6 7 9 11 12 14 15	61 a.u.
2'F-ANA at 2 4 7 10 14	64.8 a.u.
2'F-ANA at 1 2 3 6 10 11 13 14	79.4 a.u.
2'F-ANA at 1 2 6 8 10 13	48.6 a.u.
2'F-ANA at 3 6 9 10 14 15	393 a.u.
2'F-ANA at 3 4 11 12 13 14	363 a.u.
2'F-ANA at 2 8 9 12 13	563 a.u.
2'F-ANA at 1 3 6 7 13 15	196 a.u.
2'F-ANA at 4 14	99 a.u.
2'F-ANA at 2 7 9 10 12 13 15	156 a.u.
2'F-ANA at 1 2 11 13	113 a.u.
2'F-ANA at 2 3 5	187 a.u.
2'F-ANA at 4 5 7 8 10 12 14	43.1 a.u.
2'F-ANA at 5 7 8 9 10 11 12 13	51 a.u.
2'F-ANA at 1 3 4 5 7 8 9 11 13 14 15	44.1 a.u.
2'F-ANA at 1 2 7 9 10 11 12 14	64.8 a.u.
2'F-ANA at 3 4 5 10 12 14 15	48.4 a.u.
2'F-ANA at 2 4 5 8 9 10 12 15	56.2 a.u.
2'F-ANA at 1 2 3 6 8 10 11 12 13 14 15	71.2 a.u.
2'F-ANA at 2 3 4 5 6 8 11 12 13 14	62.1 a.u.
2'F-ANA at 1 2 5 6 7 8 10 11 12 13	69.7 a.u.
2'F-ANA at 3 4 6 8 9 11	587 a.u.

Set 2 — method: universal PBM; molecule type: double-stranded DNA, one strand shown; medium: in vitro; tested at: 600 nM; reading: higher = stronger binding
Target: Sal-like protein 4, full length isoform A (SALL4, Homo sapiens, UniProt Q9UJQ4, residues 1-1053)
Sequence of UniProt Q9UJQ4 (whole entry, looked up): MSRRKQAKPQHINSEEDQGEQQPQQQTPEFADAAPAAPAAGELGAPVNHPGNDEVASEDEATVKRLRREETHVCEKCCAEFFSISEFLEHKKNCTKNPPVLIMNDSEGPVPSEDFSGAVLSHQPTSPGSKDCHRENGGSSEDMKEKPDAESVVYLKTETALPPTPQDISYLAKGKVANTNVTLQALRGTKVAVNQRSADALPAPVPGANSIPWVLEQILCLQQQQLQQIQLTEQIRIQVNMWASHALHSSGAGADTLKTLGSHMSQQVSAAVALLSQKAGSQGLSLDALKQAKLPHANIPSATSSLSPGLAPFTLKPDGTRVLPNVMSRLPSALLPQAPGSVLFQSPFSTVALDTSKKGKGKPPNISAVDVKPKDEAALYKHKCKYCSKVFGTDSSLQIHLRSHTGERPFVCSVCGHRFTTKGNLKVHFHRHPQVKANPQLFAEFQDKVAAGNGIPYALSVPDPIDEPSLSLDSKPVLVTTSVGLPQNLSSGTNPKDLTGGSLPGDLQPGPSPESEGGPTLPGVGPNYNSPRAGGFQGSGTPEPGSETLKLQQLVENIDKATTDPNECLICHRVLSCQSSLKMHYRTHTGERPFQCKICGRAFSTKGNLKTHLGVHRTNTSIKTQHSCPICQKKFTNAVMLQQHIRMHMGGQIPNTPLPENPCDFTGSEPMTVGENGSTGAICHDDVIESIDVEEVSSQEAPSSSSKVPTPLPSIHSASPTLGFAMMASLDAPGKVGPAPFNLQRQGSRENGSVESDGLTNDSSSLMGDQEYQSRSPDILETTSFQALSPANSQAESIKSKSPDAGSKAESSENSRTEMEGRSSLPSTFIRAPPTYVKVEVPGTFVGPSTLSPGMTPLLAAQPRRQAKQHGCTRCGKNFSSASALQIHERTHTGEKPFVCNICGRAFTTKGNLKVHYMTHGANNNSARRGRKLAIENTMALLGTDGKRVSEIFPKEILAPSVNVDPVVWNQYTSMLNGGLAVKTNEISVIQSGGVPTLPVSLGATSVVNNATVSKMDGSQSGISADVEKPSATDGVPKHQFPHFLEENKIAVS
Notes: 8-mer, flanks averaged, mean of replicates
Oligonucleotide	E-score
CCAACAGG	-0.256
ACGCTCCG	-0.268
AGGCCTCG	-0.393
ACAGACTC	-0.0837
AAAAATCT	0.282
AAGTTCAC	-0.0341
CTAGACCC	-0.303
TAAGAACA	0.205
AATCAACA	0.294
ACCAAGCA	-0.141
CTAATGAA	0.169
CACGGAGA	-0.269
AACTACCG	-0.146
GCGGGCCC	-0.372
TGGCACCA	-0.225
ATGTTCGC	0.0485
ACAGGGAC	-0.219

Set 3 — method: RNA Bind-n-Seq; molecule type: RNA; medium: in vitro; tested at: not given; reference: input RNA pool; reading: higher = stronger binding
Target: RING finger protein unkempt homolog, zinc fingers 1-6, GST-SBP tag (UNK, Homo sapiens, UniProt Q9C0B0, residues 30-357)
Notes: RNA with constant flanks, human-mouse chimeric sites, ends assumed
All sequences stand within: GGGAGUUCUACAGUCCGACGAUC … CAACAGAGGAUUGAGCAUCA
Target sequence (chain): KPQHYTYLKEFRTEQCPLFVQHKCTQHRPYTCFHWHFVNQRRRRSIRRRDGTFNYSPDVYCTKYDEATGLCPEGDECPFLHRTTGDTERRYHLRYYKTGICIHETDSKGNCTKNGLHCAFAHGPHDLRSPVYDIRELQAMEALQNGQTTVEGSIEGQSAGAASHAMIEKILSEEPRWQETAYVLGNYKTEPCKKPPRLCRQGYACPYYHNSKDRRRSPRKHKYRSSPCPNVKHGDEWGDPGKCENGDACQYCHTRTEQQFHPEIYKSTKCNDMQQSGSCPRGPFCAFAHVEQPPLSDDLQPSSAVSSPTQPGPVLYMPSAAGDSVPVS
Oligonucleotide	bound/input enrichment
CUGAGGAUACCACUGAAAGAGACAUUAAAGAAUCAUUUGAGGGCUCUGUUCGUGCAAGAAUAGUCACUGAUCGGGAAACUGGUUCUUCCAAAGGGUUUGGUUUUGUAAGACUUCAACGUG	0.361 ratio
AACGUGGAACUAAGUUCCUUGGCCCGGCUUCCCAGCUUGAAUAAACUCCGGAAGUUGGAGCUUAGUGACAAUAUAAUUUCUGGAGGCUUGGAAGUCCUGGCAGAGAAAUGUCCAAAUCUU	0.149 ratio
UAAGUUAUUUUGUACAGUAAGUUAUUUUCUUAACAUUUUUAUAUUGCCAUGUUUAUUUUGUUUGGGUAAUUUGGUUCAUUAAGUACAAAACCAAAUAAAUGAACAUCUUUUUCAGUAAUU	4.04 ratio
AUUCCGAUUAUGGACACCGGUGAAAACCCAGAGGUUCCCUUCCCCCGGGACAUGAUCGACUUAGAGGCCAAUUUUGAGAAGAUUGAAAAUGAACUGAAGGAAAUCAACACUAACCAGGAA	0.129 ratio
AGGAGGAGGUUAAAGGGUGAGAGUGGGGUGGAAGACUGUGUCAUGGCCCUAGAAACCCUGUUCAGUGUUCUGCUUUCUCUGUGCAGACUGAUGGCCCCUUACACGCCCUUUCUGACUGAG	0.0479 ratio
AGAGCCCAGGAUGUUGAUGCUACAAAUCCAAAUUAUGAAAUUAUGUGUAUGAUCAGAGACUUCAGAGGGAGCUUGGAUUAUAGACCACUAACAACAGCAGAUCCUAUUGAUGAACAUAGG	0.681 ratio
GAUCAUGGAACCAGAAUAGAAAUGAAGAUGAGAUUACCCAGACGAGCCAAAACAGCUGCGCUACAGAAAAGUAAACUUAACCUUGCAGAGUUCCUUAAUGAAGAUACUAAGUUAGGAAGC	1 ratio
GACUUGGGACCGUCCUGGGCUAGUACAAAUAGCGGCAGUGGAGGCUCAGAGGAAAGUUUUGUUAGUGGAGGCAGUGGUAGAGGCCGUCAUGUACGGUCCUUUACUCGAUAGAUGUGUUCU	0.698 ratio
ACAGUUAUAUUGUUGAGUUUCAUUUUCAUAUAUUCUUGUAGUGUCUGCUUGCCUGUGACUUCUGGUAAAAUAAAAUAUUAAAAUUACAAUAUUUUAGAUUUAACAUUAACAUUUUCUAAA	3.31 ratio
GUAGCUGGGACUACAGAAAUGCUGGUAAUUUCAGUCACUUGCUGAUGACUUCUGAUGUCCCAGCAAAUGUUGGCAUUCACUGCAAUACUGUGAAGACUUCUGAGGACCCACGUCUAAGGU	0.109 ratio
CCCCAAUACCAUUUGCAGGUCUGGAACCUGCAUUCUUUUUUUAAAAAAUAUGCAUAUAUUUUAGGGCUGUAGAUUUAUUUUCCUGGUUUUGUUUUUCAUUGCUGACUUUUGAGCACAGAA	0.689 ratio

Set 4 — method: RNA Bind-n-Seq; molecule type: RNA; medium: in vitro; tested at: 365 nM; reference: no-protein control; reading: higher = stronger binding
Target: RNA binding protein fox-1 homolog 2, RRM domain, GST-SBP tag (RBFOX2, Homo sapiens, UniProt O43251-10, residues 100-194)
Notes: natural RNA segment, single round, ends assumed
All sequences stand within: GGGAGUUCUACAGUCCGACGAUC … UGGAAUUCUCGGGUGCCAA
Target sequence (chain): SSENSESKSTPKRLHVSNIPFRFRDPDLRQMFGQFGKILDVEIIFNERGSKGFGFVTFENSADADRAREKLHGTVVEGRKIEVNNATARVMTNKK
Oligonucleotide	RBNS enrichment (R)
AUGCCUUUACAUAGAAGGGCUCUGAUUUGCACAAUUUGUUGAAAAAUCACAAACCCAUAGAAAAGUAAGUAGGCUAAGUUGGGGAGGCUCAAACCAUUAAGGGUUAAAAA	0.394
GUGUGAUGUUGUGUUGCUCACACACGCCACCCAGCCACCCAUGCGCUGCCUGACCACAGCAACCCCCUCCCGUGCGGCAGACGUCACUCCUCGCAUCGUGAGCUGAGGCU	2.34
UGGAAAUUGAGGUCCAUGGGGGAAAUCAAGGAUGCUCAGUUUAAGGUACACUGUUUCCAUGUUAUGUUUCUACACAUUGCUACCUCAGUGCUCCUGGAAACUUAGCUUUU	0.452
AUUUGAUUUUUACAAUUAUUCUCUUCUAACCAAUGAAGUGUUUGUCAGUAUGCCCCAAAGCUUGCUCUUUUGUGCUCCCUUUUGAAUAACUUUCUAUCCAGAAAAAGAGA	1.49
AUGUGCCUCUGCGGGGCAGGGCCUUCCUGGUUUUGUUCACUGCUGUACCCAGAUGCCUACAACCAUCCCUGCCACAUACAGGUGCUCAAUAAACACUUGUAGAGCAGAUG	0.205
AAGAAGAGAUUAAAAACUUCGGCUUUGGACAUGUCCACAUUAUGGACUGUCAUCUUAUUUUUAAAAGUCAUUCUUUACGUUUAAAAUUUUAAAAUAAAAACCUUCUGAGG	0.653
UAACACACUCAAACUGGUGGAGCUUGUUCACCCUAGGAAGGGGAUUGUAUAUAUGGCAGGCUUCCCUGGUGCCGAUGUAAAGGGCUACAUUUGGGAACAUUUGACUUCCU	0.515
CUUGAGACUGUCCCACAGUGCUCCUCUAGAGGCUGCUGGGGCCACCCUGACAUCACUCAGCACUCACUUGCUACCAAUUCUAUUUAUUUCGGAAUUACAAGAUAGCGGGA	0.296
UGGAUGGGUAAUUUUUAUUUCUGAUACGCAUCUUUAGAGUCAAAUAUAUCUUUUCCCUGUACUCCUCAUGUACAACCAAAGAACAUACAUUAUGAAAAUUGUAUUAUAAU	2.39

Some of these lines once more (set 2):
Oligonucleotide	E-score
AAAAATCT	0.282
ACAGACTC	-0.0837
CACGGAGA	-0.269
AATCAACA	0.294
AGGCCTCG	-0.393
ACCAAGCA	-0.141
AACTACCG	-0.146
CTAGACCC	-0.303
